Experimental data of several laboratories.
± marks the error that the study gave.

c1ccc2c(Nc3c4c(nc5ccccc35)CCCC4)cccc2c1  inhibition (HepG2; MTT; 50 µM, 24 h, 10% FBS): 66.4 ± 2.85%
CC(=O)Oc1ccc(Cn2ccc(=O)[nH]c2=O)cc1C1OC(c2cccc(Cl)c2)=NN1C(C)=O (centres unmarked)  minimum cytotoxic concentration (HEL fibroblasts; cell morphology, microscopy): 100 µM
COc1ccc(Nc2c3c(nc4cc(C)ccc24)CCCC3)nc1  inhibition (HepG2; MTT; 50 µM, 24 h, 10% FBS): -11.4 ± 0.57%
CC(C)c1ccc(/C=C/C(=O)NC(=O)N[C@@H]2O[C@H](CO)[C@@H](O)[C@H](O)[C@H]2O)cc1  minimal cytotoxic concentration (HEL fibroblasts; cell morphology; 3 days): > 100 µM
CSCC[C@H](N)C(=O)N[C@@H](CCC(=O)O)C(=O)N[C@H](C(=O)NCC(=O)N[C@@H](Cc1c[nH]c2ccccc12)C(=O)N[C@@H](Cc1ccc(O)cc1)C(=O)N[C@@H](CCCNC(=N)N)C(=O)N[C@@H](CO)C(=O)N1CCC[C@H]1C(=O)N[C@@H](Cc1ccccc1)C(=O)N[C@@H](CO)C(=O)N[C@@H](CCCNC(N)=O)C(=O)N[C@H](C(=O)N[C@H](C(=O)N[C@@H](Cc1c[nH]cn1)C(=O)N[C@@H](CC(C)C)C(=O)N[C@@H](Cc1ccc(O)cc1)C(=O)N[C@@H](CCCNC(N)=O)C(=O)N[C@@H](CC(N)=O)C(=O)NCC(=O)N[C@@H](CCCCN)C(N)=O)C(C)C)C(C)C)C(C)C  cytotoxic concentration (mouse bone marrow-derived dendritic cells; MTT): ≤ 10 µM
C[C@@H](NC(=O)[C@H](Cc1ccccc1)NC(=O)[C@@H](CCCNC(=N)N)NC(=O)[C@H](CCCN)NC(=O)[C@@H]1CNC(=O)c2cc3cc(c2)C(=O)N[C@H](Cc2ccc4ccccc4c2)C(=O)N[C@@H](CO)C(=O)N[C@@H](CC(N)=O)C(=O)N[C@H](Cc2ccc4ccccc4c2)C(=O)N[C@@H](c2ccccc2)C(=O)N[C@@H](CCCCNC3=O)C(=O)N[C@H](Cc2ccccc2)C(=O)N[C@@H](CCC(N)=O)C(=O)N[C@H](CCCNC(=N)N)C(=O)N[C@@H](CCCNC(=N)N)C(=O)N1)C(N)=O  concentration causing LDH release (H358; 45 min, range tested 0 to 20 µM): ≥ 20 µM
CC(=O)N[C@@H](CC(=O)O)C(=O)N[C@@H](CCC(=O)O)C(=O)N[C@H](C(=O)N[C@@H](CC(=O)O)C(=O)NCC(=O)NCC(=O)NCC(=O)NCCNC(=O)OCC1c2ccccc2-c2ccccc21)C(C)C  cellular uptake (HepG2; 200 µM, 2 h, 37 °C, 10% FBS): 0.4 fmol/cell
CC(=O)Oc1ccc(Cn2nc(C)c(=O)[nH]c2=O)cc1C1OC(c2cccc(Cl)c2)=NN1C(C)=O (centres unmarked)  minimum cytotoxic concentration (HEL fibroblasts; cell morphology, microscopy): ≥ 20 µM
CCCCCC1CCCCCCC(=O)CCC(=O)OCC2OC(OC3C(O1)OC(C)C(OC(C)=O)C3O)C(O)C(OC(=O)C(C)CC)C2OC(=O)C=Cc1ccccc1 (mixture of isomers)  IC50 (MDA-MB-231; cytotoxicity): 429 nM
COc1c(OC(=O)N(C)c2cccc(Cl)c2)cc2oc3cc4c(c(O)c3c(=O)c2c1CC=C(C)C)C=CC(C)(C)O4  inhibition (PC-12; cell proliferation, MTT; 10 µM, 24 h): 0%
O=P(O)(O)Oc1c2c(c(OP(=O)(O)O)c3c1C1CC3c3cc4ccccc4cc31)C1CC2c2cc3ccccc3cc21  highest non-toxic concentration (TZM-bl; CellTiter-Glo; 2 days): ≤ 250 µM
O=C1C(O)=C(CNC2CCCC2)C(=O)c2ccccc21  median lethal concentration (BGM (monkey kidney); MTT; 10% FCS; 24 h): ≥ 3690 µM
O=C(/C=C/c1ccc(-c2ccccc2)cc1)N[C@@H]1O[C@H](CO)[C@@H](O)[C@H](O)[C@H]1O  minimal cytotoxic concentration (HEL fibroblasts; cell morphology; 3 days): > 100 µM
CCCCn1cc(C(=O)O)c(=O)c2cc(F)c(Nc3ccccc3Cl)c([N+](=O)[O-])c21  IC50 (HCT-116; cell growth or viability, SRB): 97100 nM
O=C(/C=C/c1ccc(-c2ccccc2)cc1)NC(=O)N[C@@H]1O[C@H](CO)[C@@H](O)[C@H](O)[C@H]1O  minimal cytotoxic concentration (HEL fibroblasts; cell morphology; 3 days): > 100 µM
CCCCn1cc(C(=O)O)c(=O)c2cc(F)c3c(nnn3-c3ccccc3Cl)c21  IC50 (HCT-116; cell growth or viability, SRB): 128000 nM
CC[C@H](C)[C@H](NC(=O)[C@H](CCCCN)NC(=O)[C@H](C)NC(=O)[C@H](CCCNC(=N)N)NC(=O)[C@H](CCCCN)NC(=O)[C@H](CC(N)=O)NC(=O)[C@H](CCC(N)=O)NC(=O)[C@H](Cc1ccccc1)NC(=O)[C@H](Cc1c[nH]c2ccccc12)NC(=O)[C@@H](NC(=O)[C@H](CCCCN)NC(=O)[C@@H](NC(=O)[C@H](CCC(N)=O)NC(=O)[C@H](CO)NC(=O)[C@H](CC(C)C)NC(=O)[C@H](CCC(N)=O)NC(=O)[C@H](C)NC(=O)[C@H](CCCNC(=N)N)NC(=O)[C@@H](NC(=O)[C@H](Cc1ccccc1)NC(=O)[C@@H](NC(=O)[C@@H](NC(=O)[C@H](CCCNC(=N)N)NC(=O)[C@H](CCC(=O)O)NC(=O)[C@H](CCCNC(=N)N)NC(=O)[C@H](CCCNC(=N)N)NC(=O)[C@H](CCC(N)=O)NC(=O)[C@H](CCCCN)NC(=O)[C@H](CCCNC(=N)N)NC(=O)CNC(=O)CNC(=O)CNC(=O)CNC(=O)CNC(=O)CCCC[C@@H]1SC[C@@H]2NC(=O)N[C@@H]21)[C@@H](C)O)[C@@H](C)O)[C@@H](C)O)[C@@H](C)CC)[C@@H](C)CC)C(=O)N[C@@H](CCCCN)C(=O)N[C@@H](CCCCN)C(N)=O  cellular uptake (CHO pgsA-745 (GAG-deficient); MALDI-TOF MS; 7 µM, 1 h, added: heparin up to 7.2 µg/mL): ~30 pmol
C[C@@H]1NC(=O)[C@H](CCCCCC(=O)[C@@H]2CO2)NC(=O)[C@H]2CCCN2C(=O)[C@H](Cc2ccccc2)NC1=O  LC50 (MIA PaCa-2; MTT; 48 h): 22 nM
CC(=O)Oc1ccc(Cn2cc(F)c(=O)[nH]c2=O)cc1C1OC(c2ccccc2)=NN1C(C)=O (centres unmarked)  minimum cytotoxic concentration (HEL fibroblasts; cell morphology alteration): > 100 µM
CCCCn1cc(C(=O)O)c(=O)c2cc(F)c(Nc3ccccc3Cl)c(N)c21  IC50 (HCT-116; cell growth, SRB; 72 h): 42.8 ± 1.26 µg/mL
CCOc1cccc(N(C)C(=O)Oc2cc3oc4cc5c(c(O)c4c(=O)c3c(CC=C(C)C)c2OC)C=CC(C)(C)O5)c1  inhibition (PC-12; cell proliferation, MTT; 10 µM, 24 h): 0%
CC(C)C[C@H](NC(=O)[C@H](CCC(N)=O)NC(=O)[C@@H]1CSSC[C@@H]2NC(=O)[C@H](CC(N)=O)NC(=O)[C@@H](N)CSSC[C@H](NC(=O)[C@H](Cc3ccccc3)NC(=O)[C@H](C)NC(=O)[C@H]([C@@H](C)O)NC(=O)[C@H](CCC(=O)O)NC(=O)[C@@H]3CCCN3C(=O)[C@H](C)NC(=O)[C@H](CCCCN)NC2=O)C(=O)N[C@@H](C)C(=O)N[C@@H](Cc2ccc(O)cc2)C(=O)N[C@@H](Cc2c[nH]c3ccccc23)C(=O)N1)C(N)=O  cytotoxicity (HCT-116 p53+/+; up to 400 µM): not toxic
N=C(N)NCCC[C@@H]1NC(=O)[C@H](Cc2csc3ccccc23)NC(=O)[C@@H](Cc2ccccc2)NC(=O)[C@H](Cc2ccccc2)NC(=O)[C@H](CCC(=O)NCCOCCOCC(=O)N[C@@H](CCCCNC(=O)c2ccc3c(c2)C(=O)OC32c3ccc4cc(O)ccc4c3Oc3c2ccc2cc(O)ccc32)C(N)=O)NC(=O)[C@@H](CCCNC(=N)N)NC(=O)[C@H](CCCNC(=N)N)NC(=O)[C@@H](CCCNC(=N)N)NC1=O  cellular uptake (HeLa; flow cytometry; 5.0 µM, 2 h, 1% FBS; baseline: CPP12): 79 ± 13%
COC(=O)[C@]1(C)CCC[C@]2(C)[C@H]3C[C@H]4C(C(C)C)=C[C@]3(CC[C@H]21)[C@H]1[C@@H]4[C@@H](OCC#CCN2CCOCC2)CC[C@@H]1O  viability (BHK-21-hACE2; 20.0 µM, 48 (unit not given)): 117%
Cc1ccc(C(C)C)cc1.Clc1ccc2c(NCCNCc3ccccn3)ccnc2c1.[Cl-].[Cl][Ru+]  cytotoxicity (CHO; MTT; concentration not given, highest tested concentration): not toxic
CCCCCCCCCCCC(=O)NCCCC[C@H](NC(=O)[C@H](C)NC(=O)[C@H](C)NC(=O)[C@H](C)NC(=O)[C@H](C)NC(=O)[C@H](C)NC(=O)[C@H](C)NC(=O)[C@H](CCCCN)NC(=O)[C@H](CCCCN)NC(=O)[C@H](CCCCNC(=O)CC[C@H](NC(=O)[C@@H](NC(=O)[C@@H]1CSSC[C@H](NC(=O)[C@H](CC(=O)O)NC(=O)[C@@H](N)Cc2c[nH]c3ccccc23)C(=O)N[C@@H](CC(C)C)C(=O)N[C@@H](CC(=O)O)C(=O)N[C@@H](CC(N)=O)C(=O)N[C@@H](CCCNC(=N)N)C(=O)N[C@@H]([C@@H](C)CC)C(=O)NCC(=O)N[C@@H](CCCNC(=N)N)C(=O)N[C@@H](CCCNC(=N)N)C(=O)N[C@@H](CCC(N)=O)C(=O)N1)C(C)C)C(=O)N[C@@H](CC(C)C)C(N)=O)NC(=O)CC[C@H](NC(=O)[C@@H](NC(=O)[C@@H]1CSSC[C@H](NC(=O)[C@H](CC(=O)O)NC(=O)[C@@H](N)Cc2c[nH]c3ccccc23)C(=O)N[C@@H](CC(C)C)C(=O)N[C@@H](CC(=O)O)C(=O)N[C@@H](CC(N)=O)C(=O)N[C@@H](CCCNC(=N)N)C(=O)N[C@@H]([C@@H](C)CC)C(=O)NCC(=O)N[C@@H](CCCNC(=N)N)C(=O)N[C@@H](CCCNC(=N)N)C(=O)N[C@@H](CCC(N)=O)C(=O)N1)C(C)C)C(=O)N[C@@H](CC(C)C)C(N)=O)C(N)=O  cytotoxic concentration (MDA-MB-231; MTS): > 1 µM
CC(=O)Oc1ccc(Cn2cc(F)c(=O)[nH]c2=O)cc1C1OC(c2ccc(Cl)cc2)=NN1C(C)=O (centres unmarked)  minimum cytotoxic concentration (HEL fibroblasts; cell morphology, microscopy): 100 µM
CC[C@H](C)[C@H](NC(=O)[C@H](CC(C)C)NC(=O)[C@H]1CCCN1C(=O)[C@@H](CO)NC(=O)[C@H](N)CC(C)C)C(=O)N[C@@H](Cc1ccccc1)C(=O)N[C@H](C(=O)N[C@H](C(=O)N[C@H](C(=O)N1CCC[C@H]1C(=O)N[C@@H](CC(=O)O)C(=O)N[C@@H](C(=O)O)[C@H](C)O)[C@@H](C)O)[C@@H](C)O)C(C)C  proliferation (MC38-CCR7-GFP; MTT; concentration not given, 24 to 72 h): no inhibition
CC(=O)OC[C@H]1O[C@@H](NC(=O)NC(=O)/C=C/c2ccc(C(C)C)cc2)[C@H](OC(C)=O)[C@@H](OC(C)=O)[C@@H]1OC(C)=O  minimal cytotoxic concentration (HEL fibroblasts; cell morphology; 3 days): > 100 µM
CCc1cccc(N(C)C(=O)Oc2cc3oc4cc5c(c(O)c4c(=O)c3c(CC=C(C)C)c2OC)C=CC(C)(C)O5)c1  inhibition (PC-12; cell proliferation, MTT; 10 µM, 24 h): 0%
CC=C(C)C(=O)OC1C(O)C2OC(COC(=O)CCC(=O)CCCCCCC(CCCCC)OC3OC(C)C(O)C(O)C3O2)C1OC(=O)C=Cc1ccccc1 (centres unmarked)  IC50 (MDA-MB-231; cytotoxicity): 131 nM
CC(=O)Nc1ccc(/C=N/NC(=S)Nc2cccc3cccnc23)cc1  highest non-cytotoxic concentration (CHO; resazurin; 48 h, 10% FBS): > 200 µg/mL
CCCCn1cc(C(=O)O)c(=O)c2cc(F)c(Nc3cccc(Cl)c3)c(N)c21  IC50 (SW-620; cell growth, SRB; 72 h): 3.71 ± 0.27 µg/mL
CCc1ccc([C@H](C)CC(=O)N[C@@H]2O[C@H](CO)[C@@H](O)[C@H](O)[C@H]2O)cc1  minimal cytotoxic concentration (HEL fibroblasts; cell morphology; 3 days): > 100 µM
Clc1ccc2nc3c(c(Nc4ccc5ccccc5n4)c2c1)CCCC3  inhibition (HepG2; MTT; 50 µM, 24 h, 10% FBS): 4.32 ± 0.14%

A few entries again:
CCCCn1cc(C(=O)O)c(=O)c2cc(F)c(Nc3ccccc3Cl)c([N+](=O)[O-])c21  IC50 (HCT-116; cell growth or viability, SRB): 97100 nM
O=C(/C=C/c1ccc(-c2ccccc2)cc1)NC(=O)N[C@@H]1O[C@H](CO)[C@@H](O)[C@H](O)[C@H]1O  minimal cytotoxic concentration (HEL fibroblasts; cell morphology; 3 days): > 100 µM
CCCCn1cc(C(=O)O)c(=O)c2cc(F)c3c(nnn3-c3ccccc3Cl)c21  IC50 (HCT-116; cell growth or viability, SRB): 128000 nM
CC[C@H](C)[C@H](NC(=O)[C@H](CCCCN)NC(=O)[C@H](C)NC(=O)[C@H](CCCNC(=N)N)NC(=O)[C@H](CCCCN)NC(=O)[C@H](CC(N)=O)NC(=O)[C@H](CCC(N)=O)NC(=O)[C@H](Cc1ccccc1)NC(=O)[C@H](Cc1c[nH]c2ccccc12)NC(=O)[C@@H](NC(=O)[C@H](CCCCN)NC(=O)[C@@H](NC(=O)[C@H](CCC(N)=O)NC(=O)[C@H](CO)NC(=O)[C@H](CC(C)C)NC(=O)[C@H](CCC(N)=O)NC(=O)[C@H](C)NC(=O)[C@H](CCCNC(=N)N)NC(=O)[C@@H](NC(=O)[C@H](Cc1ccccc1)NC(=O)[C@@H](NC(=O)[C@@H](NC(=O)[C@H](CCCNC(=N)N)NC(=O)[C@H](CCC(=O)O)NC(=O)[C@H](CCCNC(=N)N)NC(=O)[C@H](CCCNC(=N)N)NC(=O)[C@H](CCC(N)=O)NC(=O)[C@H](CCCCN)NC(=O)[C@H](CCCNC(=N)N)NC(=O)CNC(=O)CNC(=O)CNC(=O)CNC(=O)CNC(=O)CCCC[C@@H]1SC[C@@H]2NC(=O)N[C@@H]21)[C@@H](C)O)[C@@H](C)O)[C@@H](C)O)[C@@H](C)CC)[C@@H](C)CC)C(=O)N[C@@H](CCCCN)C(=O)N[C@@H](CCCCN)C(N)=O  cellular uptake (CHO pgsA-745 (GAG-deficient); MALDI-TOF MS; 7 µM, 1 h, added: heparin up to 7.2 µg/mL): ~30 pmol
